Assay results collected from several papers.
Numbers after ± are the reported error.
Organism: Plasmodium falciparum

For `O=C(c1ccc(-c2cc3nccc(-c4ccc5cnccc5c4)c3o2)cc1)N1CCNCC1`, the EC50 was 58 nM (parasite growth; 3D7; blood stage).
`COC[C@H](NC(=O)[C@H](CC1CCCCC1)NC(=O)CN1CCOCC1)C(=O)N[C@H](/C=C/S(C)(=O)=O)CC(C)C` has an EC50 of 359 ± 42 nM (flow cytometry YOYO-1; W2 ring stage; 72 h no washout).
`O=C1C2=C(Nc3ccccc3SC2C2CC2)c2ccccc21` (racemic) has an EC50 of 48 nM (growth, [3H]hypoxanthine incorporation; 3D7).
The EC50 of `Cc1ccc(CNC(=O)[C@@H](NC(=O)[C@H](CCc2ccccc2)NC(=O)[C@H](CCc2ccccc2)NCc2cnccn2)C(C)C)cc1` is reported as 221 nM (parasite growth; D10; 72 h, blood stage).
With `CC(C)=CCC/C(C)=C/Cc1c(CCC(=O)c2ccc(O)cc2O)ccc(O)c1O` the EC50 was 11600 nM (parasite growth, PfLDH; 3D7 expressing yeast DHODH).
`COc1cc(C(=O)N2CCN(C)CC2)ccc1-c1cc2nccc(-c3ccc4cnccc4c3)c2o1` has an EC50 of 160 nM (parasite growth; 3D7; blood stage).
`Cc1ccc(NCC(=O)NC2CCCCC2)cc1S(=O)(=O)N1CCOCC1` has an EC50 of 2670 nM (parasite growth; 3D7; blood stage).
`COC(=O)c1[nH]c(C(=O)OC)c2c1-c1c[nH]c3ccc(Cl)c(c13)C21CNc2ccc(Cl)cc21` (racemic) gave an EC50 of 4400 nM (parasite growth, SYBR Green; 3D7; 72 h, blood stage).
With `Cc1ccc(CNC(=O)[C@@H](NC(=O)[C@H](CCc2ccccc2)NC(=O)[C@H](CCc2ccccc2)N(C)C)C(C)C)cc1` the EC50 was 277 nM (parasite growth; D10; 72 h, blood stage).
`O=C1C2=C(Nc3ccccc3SC2C2CCCCC2)c2ccccc21` (racemic) has an EC50 of 34 nM (growth, [3H]hypoxanthine incorporation; 3D7).
`Cc1ccc(NC(C)(C)C(=O)Nc2ccc(F)c(Cl)c2)cc1S(=O)(=O)N1CC2CC1CO2` (stereo not drawn) gave an EC50 of 14 nM (parasite growth; 3D7; blood stage).
`O=c1cc[s+]([O-])c2ccc(Cl)cc12` (single isomer, unassigned; (-)) gave an EC50 of 230000 nM (parasite growth; 3D7; 72 h, blood stage).
`O=C1C2=C(Nc3ccccc3SC2c2ccc(F)cc2)c2ccccc21` (racemic) gave an EC50 of 33 nM (growth, [3H]hypoxanthine incorporation; 3D7).
`COC(=O)c1[nH]c(C(=O)OC)c2c1-c1c[nH]c3ccc(Cl)c(c13)C21C=Nc2ccc(Cl)cc21` (racemic) has an EC50 of 2800 nM (parasite growth, SYBR Green; 3D7; 72 h, blood stage).
The EC50 of `O=c1cc[s+]([O-])c2ccc(F)cc12` (racemic) is reported as 107000 nM (parasite growth; 3D7; 72 h, blood stage).
For `Nc1ccc(C(=O)/C=C/c2ccccc2F)cc1`, the EC50 was 12000 nM (parasite growth; 3D7; 48 h, blood stage).
The EC50 of `COc1ccc(S(=O)(=O)NCc2c[nH]nc2-c2cccs2)cc1` is reported as 617 nM (parasite growth, ex vivo schizont maturation; Brazilian Western Amazon isolates).
`CCCCCCCCCC1=CC(=O)c2ccccc2S1(=O)=O` gave an EC50 of 69900 nM (parasite growth; 3D7; 72 h, blood stage).
`C#CC[C@@H](/C=C/S(C)(=O)=O)NC(=O)[C@H](COC)NC(=O)[C@H](CCc1ccccc1)NC(=O)CN1CCOCC1` gave an EC50 of 18 ± 5 nM (flow cytometry YOYO-1; W2 ring stage; 72 h no washout).
For `Cc1cc(N2CC[C@](C#N)(C3(C)CC3)C2=O)cc(C(=O)NCc2cc(F)cc(-c3cnn(C)c3)c2)n1`, the EC50 was 2760 nM (asexual blood-stage growth, SYBR Green I; 3D7; 48 h).
`CNC(=O)c1c(F)cccc1Nc1nc(Nc2cc3c(cc2OC)CCN3C(=O)CN(C)C)nc2[nH]ccc12` has an EC50 of 1580 nM (C235).
For `CC(C)C1NC(=O)C(Cc2ccccc2)NC(=O)C(CCCCCC(=O)C2CO2)NC(=O)C2CCCCN2C1=O` (stereo not drawn), the EC50 was 350 ± 70 nM (parasite growth, SYBR Green I; 3D7, drug-sensitive; 72 h).
For `O=c1cc[s+]([O-])c2ccccc12` (racemic), the EC50 was 106000 nM (parasite growth; 3D7; 72 h, blood stage).
For `CC(=O)N[C@@H](CCCNC(=N)N)C(=O)N[C@H](C(=O)N[C@@H](Cc1c[nH]c2ccccc12)C(=O)N[C@@H](Cc1c[nH]cn1)C(=O)N[C@@H](C)C(=O)C(=O)NCCCCc1ccccc1)C(C)C`, the EC50 was 330 ± 40 nM (3D7).
`Cc1ccc(NCC(=O)N2CCNCC2)cc1S(=O)(=O)N1CCOCC1` gave an EC50 of over 50000 nM (parasite growth; 3D7; blood stage).
With `CN(C)Cc1cc(/C=C/C(=O)c2ccc(Cl)cc2)ccc1O` the EC50 was 2690 nM (parasite growth; 3D7; 72 h, blood stage).
With `COc1ccc(NC(C)(C)C(=O)Nc2ccc(F)c(Cl)c2)cc1S(=O)(=O)N1CCOCC1` the EC50 was 14 nM (parasite growth; 3D7; blood stage).
With `Cc1ccc(CNC(=O)[C@H](CC(C)C)NC(=O)[C@H](CCc2ccccc2)NC(=O)c2cnc(C)cn2)cc1` the EC50 was 127 nM (parasite growth; D10; 72 h, blood stage).
`O=C1C2=C(Nc3ccccc3SC2c2ccc(O)c(O)c2)c2ccccc21` (racemic) gave an EC50 of over 5000 nM (growth, [3H]hypoxanthine incorporation; 3D7).
For `Cc1ccc(NCC(=O)Nc2ccc(F)cc2)cc1S(=O)(=O)N1CCOCC1`, the EC50 was 420 nM (parasite growth; 3D7; blood stage).
`Cn1c(=O)c2cc(C(=O)NCCCN3CCCCCC3)sc2c2ccccc21` has an EC50 of 268 nM (parasite growth; blood stage).
`CC(C)C[C@@H](/C=C/S(C)(=O)=O)NC(=O)[C@H](CC(C)C)NC(=O)[C@H](CCc1ccccc1)NC(=O)CN1CCOCC1` gave an EC50 of 3 ± 0.6 nM (flow cytometry YOYO-1; W2 ring stage; 72 h no washout).
For `Cc1cc(N2CCC(CO)(C3CC3)C2=O)cc(C(=O)NCc2cc(F)cc(-c3cnn(C)c3)c2)n1` (stereo not drawn), the EC50 was 356 nM (asexual blood-stage growth, SYBR Green I; 3D7; 48 h).
`Cc1ccc(NCCNc2ccc(F)c(Cl)c2)cc1S(=O)(=O)N1CCOCC1` has an EC50 of 22600 nM (parasite growth; 3D7; blood stage).
With `Cc1ccc(CNC(=O)[C@@H]2Cc3cccc(c3)Oc3cccc(c3)C[C@H](N)C(=O)N[C@@H](CCc3ccccc3)C(=O)N2)cc1` the EC50 was 4380 nM (1 h pulse, synchronized trophozoite stage).
`O=C(CNc1ccc(Cl)c(S(=O)(=O)N2CCOCC2)c1)Nc1ccc(F)c(Cl)c1` has an EC50 of 60 nM (parasite growth; 3D7; blood stage).
`Cc1ccc(CNC(=O)[C@H](CCCCNC(=O)OCc2ccccc2)NC(=O)[C@H](CC2CCCCC2)NC(=O)Cc2cccnc2)cc1` has an EC50 of 4220 nM (parasite growth; D10; 72 h, blood stage).
The EC50 of `Cc1ccc(N(C)CC(=O)Nc2ccc(F)c(Cl)c2)cc1S(=O)(=O)N1CCOCC1` is reported as 290 nM (parasite growth; 3D7; blood stage).
`CC(C)C[C@@H](/C=C/S(C)(=O)=O)NC(=O)[C@H](CC(C)C)NC(=O)[C@H](Cc1cccc2ccccc12)NC(=O)CN1CCOCC1` gave an EC50 of 10 ± 2 nM (flow cytometry YOYO-1; W2 ring stage; 72 h no washout).

Some of these lines once more:
`COC(=O)c1[nH]c(C(=O)OC)c2c1-c1c[nH]c3ccc(Cl)c(c13)C21CNc2ccc(Cl)cc21` (racemic) gave an EC50 of 4400 nM (parasite growth, SYBR Green; 3D7; 72 h, blood stage).
`CC(C)C[C@@H](/C=C/S(C)(=O)=O)NC(=O)[C@H](CC(C)C)NC(=O)[C@H](Cc1cccc2ccccc12)NC(=O)CN1CCOCC1` gave an EC50 of 10 ± 2 nM (flow cytometry YOYO-1; W2 ring stage; 72 h no washout).
`O=C1C2=C(Nc3ccccc3SC2C2CCCCC2)c2ccccc21` (racemic) has an EC50 of 34 nM (growth, [3H]hypoxanthine incorporation; 3D7).
For `CC(=O)N[C@@H](CCCNC(=N)N)C(=O)N[C@H](C(=O)N[C@@H](Cc1c[nH]c2ccccc12)C(=O)N[C@@H](Cc1c[nH]cn1)C(=O)N[C@@H](C)C(=O)C(=O)NCCCCc1ccccc1)C(C)C`, the EC50 was 330 ± 40 nM (3D7).
